Assay results pooled from the literature.
Numbered parts are unrelated; each lists some results of a single study. Changes are numbered by the printed parent chain.

Block 1
Target: Phosphate system positive regulatory protein PHO4, full length, GST-tagged (PHO4, Saccharomyces cerevisiae, UniProt P07270, residues 1-312)
Method: competition protein-binding microarray
Molecule type: double-stranded DNA, one strand shown
Medium: in vitro
Tested at: 2 µM
Notes: whole 60-bp probe, lowest competitor level
Added: Cbf1 competitor, 0.05 µM
Direction: higher = stronger binding
Quantity: fluorescence intensity
Target sequence (chain): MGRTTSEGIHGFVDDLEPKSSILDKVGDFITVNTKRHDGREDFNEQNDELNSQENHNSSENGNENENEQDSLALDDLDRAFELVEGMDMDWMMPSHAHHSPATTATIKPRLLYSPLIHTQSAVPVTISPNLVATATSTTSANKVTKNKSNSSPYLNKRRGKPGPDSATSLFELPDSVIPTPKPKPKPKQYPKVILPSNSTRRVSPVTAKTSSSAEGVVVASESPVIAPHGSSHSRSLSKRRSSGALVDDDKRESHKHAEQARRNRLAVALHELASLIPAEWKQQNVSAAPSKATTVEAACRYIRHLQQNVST
TTGTGGGAGTGATTGTGCGTGTATATGTGTGTTGGCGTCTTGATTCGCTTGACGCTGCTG: 8020 a.u.
CATACCCAACCTTGTCAAGTGGGTGAAGATATTTGTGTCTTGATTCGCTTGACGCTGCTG: 3450 a.u.
CGGGGTTAAGTTTGGCCTGTGGGTGGCTTGCAGCAGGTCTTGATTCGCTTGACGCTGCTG: 4610 a.u.
CGTCCTAGTGATTGCGCCGTGGGTGCCATGAGGAAGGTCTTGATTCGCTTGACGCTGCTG: 7230 a.u.
CGGGGTTAAGTTTATCACGTGTTTTGCTTGCAGCAGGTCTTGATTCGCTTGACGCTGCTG: 16600 a.u.
GGTAATATTTTTACCACCGTGCGGACTTTCAATGGCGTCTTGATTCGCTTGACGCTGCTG: 8400 a.u.
CGTCCTAGTGATTGCGTAGTGGGTGCCATGAGGAAGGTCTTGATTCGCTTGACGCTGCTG: 6590 a.u.
TACCGGATGCAATCGCACGGGCACTAGCCTGTGCCTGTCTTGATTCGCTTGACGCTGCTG: 7440 a.u.
TGAAGGATTTGTCCACACGTGGAATCAACATATCTGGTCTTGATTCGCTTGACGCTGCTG: 17300 a.u.
GGGCTACGGCGAGCGCACGCGCATACGTTGACCGCAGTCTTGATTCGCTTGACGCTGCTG: 9030 a.u.
GTCTTGTCTCATTTTCACGTGTTGTTCCCCACTTCAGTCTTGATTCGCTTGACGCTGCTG: 12600 a.u.
AGAAGGTCAAGGAATCTCGTGATGGCATCAAACTAGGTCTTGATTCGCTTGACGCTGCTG: 5890 a.u.
TATTGAAGGTACCATCACATGCTTACTCACTTTGCGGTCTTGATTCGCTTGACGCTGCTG: 8720 a.u.
AAACCACAGTACTGTCACACTCTACTACCATCCAGTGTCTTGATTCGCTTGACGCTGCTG: 5070 a.u.
GAGTAACATTACCATCACGCTAGTACTGCTAGATTAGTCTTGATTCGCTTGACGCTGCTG: 5480 a.u.
GAGCTTCTACTAAATAACGAGCAAGCAAGGGACGCTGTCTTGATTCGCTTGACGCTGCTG: 3300 a.u.
TGGAGCTGTTGCGACCTTATTAGAACACCAACACTTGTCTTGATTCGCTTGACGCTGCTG: 3520 a.u.
CTTTGCCGAACCCATCACGGCATAACCTGCAGAATAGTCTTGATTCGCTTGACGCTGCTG: 3910 a.u.

Block 2
Target: Histone acetyltransferase KAT6A, winged helix 2, GST fusion (KAT6A, Homo sapiens, UniProt Q92794, residues 85-181)
Method: protein binding microarray
Molecule type: double-stranded DNA, one strand shown
Medium: in vitro
Tested at: not given
Notes: 8-mer, flanks averaged, mean of 2 arrays, mostly near background
Reference: not given
Direction: higher = stronger binding
Quantity: E-score
Target sequence (chain): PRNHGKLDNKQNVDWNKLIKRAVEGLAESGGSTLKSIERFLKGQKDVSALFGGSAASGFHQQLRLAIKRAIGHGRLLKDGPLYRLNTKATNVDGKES
CATCTGAC: -0.162
AGTCCTGC: -0.13
CGGGAGGA: 0.152
ATCTTTAG: 0.0597
AGGCTAAA: -0.0482
ACACCGAC: 0.171
CACACCAC: -0.0207
ACTAAGGA: -0.00769
CGGACTGC: 0.136
AGGGGCAA: 0.054
GTCATCAC: -0.0853
CACATCCC: -0.171
CACGCACC: 0.11
ACACTGAC: -0.0501
ACTCAAGC: -0.0695
AATTAGGT: 0.167
ATGGTTCA: 0.103
CCCCCGAG: 0.0332
ATGCGTGA: 0.132

Block 3
Target: Prothrombin, mature alpha-thrombin (F2, Homo sapiens, UniProt P00734)
Method: aptamer microarray, sandwich
Molecule type: DNA with 2'F-ANA
Medium: in vitro
Tested at: 200 nM
Notes: whole 15-mer aptamer, many near background
Added: Cy3 exosite-II aptamer, 400 nM
Direction: higher = stronger binding
Quantity: mean fluorescence intensity
Strand: GGTTGGTGTGGTTGG
2'F-ANA at 1 2 7 9 10 12 15: 75.3 a.u.
2'F-ANA at 2 3 4 5 6 7 10 11 13: 49.4 a.u.
2'F-ANA at 1 2 3 6 7 12 13 14 15: 78.4 a.u.
2'F-ANA at 1 2 3 4 5 6 8 11 13 14 15: 53.2 a.u.
2'F-ANA at 4 6 7 9 12 14 15: 227 a.u.
2'F-ANA at 2 4 7 10 12: 159 a.u.
2'F-ANA at 1 3 4 5 8 10 11 13 15: 44.1 a.u.
2'F-ANA at 4 5 6 9 10 11 14 15: 80.6 a.u.
2'F-ANA at 2 3 4 6 8 9 11 14: 227 a.u.
2'F-ANA at 1 3 4 5 6 7 8 11 12 14 15: 50.6 a.u.
2'F-ANA at 3 4 6 8 9 10 11 12 13 14 15: 134 a.u.
2'F-ANA at 6 7 9 10 12 14 15: 106 a.u.
2'F-ANA at 1 2 3 5 7 8 9 12 13 14 15: 51.2 a.u.
2'F-ANA at 4 7 8 11 12 13 14: 221 a.u.
2'F-ANA at 2 3 4 9 10 11 14 15: 170 a.u.
2'F-ANA at 2 3 7 8 9 12: 1270 a.u.
2'F-ANA at 3 7 10 11 12 13: 616 a.u.
2'F-ANA at 1 3 4 5 6 7 9 11 15: 55.2 a.u.
2'F-ANA at 1 5 6 7 9 10 11 12 14 15: 49.8 a.u.
2'F-ANA at 1 2 3 4 6 7 10 12 15: 90.1 a.u.
2'F-ANA at 1 6 7 9 12 14 15: 66 a.u.
2'F-ANA at 1 3 7 8 9 10 12 13: 128 a.u.
2'F-ANA at 2 3 5 6 8 10 13 15: 51.5 a.u.
2'F-ANA at 1 2 3 5 9 10 11 15: 45.5 a.u.
2'F-ANA at 1 6 7 8 9 10: 58.8 a.u.

Block 4
Target: Interferon regulatory factor 5, full length, phosphomimetic (IRF5, Homo sapiens, UniProt Q13568-2, residues 1-514, K96S/S451D/S453D/S456D/S462D)
Method: protein-binding microarray
Molecule type: double-stranded DNA, one strand shown
Medium: in vitro
Tested at: 250 nM
Notes: 60-bp whole probe
Added: salmon DNA 0.4 mg/ml
Reference: random background probes
Direction: higher = stronger binding
Quantity: log fluorescence
All sequences stand within: GCCTAGCAC … GTCTTGATTCGCTTGACGCTGCTG
TTAGATTTCAGACTGGATTCGTGCTAG: 0.348 z-score
TTAGGTATCGGGTTTCGGTTCGTGCTA: 7.96 z-score
TTAAGACTGGGGACTGGGTTAGTGCTA: -0.478 z-score
GACGGACTAGGGTTTCGGGACGTGCTA: 0.953 z-score
GACGGTCTCCTACTGCTGACGTGCTAG: -0.401 z-score
TCATCCATGCTCTGTCGCACTGTGCTA: 0.0957 z-score
TTAGGTTTCGGGTATCGGGTAGTGCTA: 9.17 z-score
GACGGTTCCCCTTTCCTGACGTGCTAG: 0.146 z-score
TTGGGTTTCGGGTTTCGGTTAGTGCTA: 9.52 z-score
ATGTCCTCCTCTCTCTTTCCGTGCTAG: 0.32 z-score
TAATGGATATATATCATTTAGTGCTAG: 0.798 z-score
GACGAACTGAGATTGGAGACGTGCTAG: -0.365 z-score
AAAGATTTACAAACTGTGAGGGTGCTA: -0.112 z-score
GACGGTCTTCTTTTCCTGACGTGCTAG: 0.311 z-score
GACGGTATCGGACTGGGGGCGTGCTAG: 1.62 z-score
CTCATTCGTCATTTCACAGTGTGCTAG: 0.745 z-score
TTTGGTATCGGGACTGGGTTAGTGCTA: 3.85 z-score
ATAACACTCTTCTTTTGCTAAGTGCTA: 1.2 z-score
TCATTCCTGATCTCTGGTACTGTGCTA: 0.424 z-score
TTAGGTTGCGGTCTCGGTTAGTGCTAG: 1.05 z-score
TTAGGTCTCGGACTGGGTTTGTGCTAG: -0.491 z-score
GACGACCTGAGTTTCGAGACGTGCTAG: 4.1 z-score

Block 5
Target: CCNE1, cyclin fold, Cln2 fusion (human)
Method: yeast growth competition, sequencing
Medium: yeast
Notes: strong parent motif
Reference: not given
Direction: higher = stronger binding
Quantity: normalised enrichment score
Starting sequence: PKMYT1 docking peptide (human); SFEPRNLLSLFED
F11T: 0.866
R5H: -0.155
F2G: 1.12
L7D: 0.689
P4D: 0.208
F2C: 0.887
N6E: 0.751
L7H: 0.708
F11D: 0.298
S1W: 1.84
F2D: 1
N6K: 0.795
L7K: 0.217
S1T: 2.26
L10E: 2.32
D13F: 2.54
L8C: 0.4
R5I: 1.35
F2Y: 1.42
